Literature values, collected from citations in different studies.
Each line is one published result; not all experiments were run side by side. Converted amounts (≈) assume the structure as drawn.
Organism: Escherichia coli

SMILES	strain	MIC [µg/mL]
C[C@H]1COc2c(N3CCN(C)CC3)c(F)cc3c(=O)c(C(=O)O)cn1c23	ATCC BAA-2469	16 (≈ 44.3 µM)
CC(C)(O/N=C(\C(=O)N[C@@H]1C(=O)N2C(C(=O)[O-])=C(C[n+]3ccccc3)CS[C@H]12)c1csc(N)n1)C(=O)O	clinical isolate RKI-No_525/16	≤ 2
CS(=O)(=O)c1ccc([C@@H](O)[C@@H](CF)NC(=O)C(Cl)Cl)cc1	–	2 (≈ 5.58 µM)
CN(C)c1cc(NC(=O)CNC(C)(C)C)c(O)c2c1C[C@H]1C[C@H]3[C@H](N(C)C)C(O)=C(C(N)=O)C(=O)[C@@]3(O)C(O)=C1C2=O	ATCC BAA-2469	0.5 (≈ 0.854 µM)
Cc1cc(C)nc(NS(=O)(=O)c2ccc(N)cc2)n1	–	16 (≈ 57.5 µM)
CC1(C)S[C@@H]2[C@H](NC(=O)[C@H](N)c3ccccc3)C(=O)N2[C@H]1C(=O)O	clinical isolate RKI-No_314/16	> 16
Oc1ccc(-c2nc(-c3ccc(OC4CCCC4)cc3)no2)cc1	ATCC 25922	> 128
CC[C@H](C)CCCCC(=O)N[C@@H](CCN)C(=O)N[C@H](C(=O)N[C@@H](CCN)C(=O)N[C@H]1CCNC(=O)[C@H]([C@@H](C)O)NC(=O)[C@H](CCN)NC(=O)[C@H](CCN)NC(=O)[C@H](CC(C)C)NC(=O)[C@@H](CC(C)C)NC(=O)[C@H](CCN)NC1=O)[C@@H](C)O	ATCC 25922	0.25 to 1 (≈ 0.214 to 0.855 µM)
CCC[C@@H]1C[C@@H](C(=O)N[C@@H]([C@H]2O[C@H](SC)[C@H](O)[C@@H](O)[C@H]2O)[C@@H](C)O)N(C)C1	–	512 (≈ 1260 µM)
CNC(C)C1CCC(N)C(OC2C(N)CC(N)C(OC3OCC(C)(O)C(NC)C3O)C2O)O1 (stereo not drawn)	clinical isolate RKI-No_443/16	4 (≈ 8.38 µM)
NC[C@H]1O[C@H](O[C@H]2[C@H](O)[C@@H](O[C@H]3O[C@H](CO)[C@@H](O)[C@H](N)[C@H]3O)[C@H](N)C[C@@H]2N)[C@H](N)C[C@@H]1O	ATCC 25922	0.25 to 1 (≈ 0.535 to 2.14 µM)
CO[C@H]1/C=C/O[C@@]2(C)Oc3c(C)c(O)c4c(O)c(c(/C=N/N5CCN(C)CC5)c(O)c4c3C2=O)NC(=O)/C(C)=C\C=C\[C@H](C)[C@H](O)[C@@H](C)[C@@H](O)[C@@H](C)[C@H](OC(C)=O)[C@@H]1C	–	4 (≈ 4.86 µM)
